# Assay results from different studies.
# Compare with care: the assays were run in different laboratories. Numbers after ± are the reported error.
SMILES,test,test system,setting,how to read,quantity,value
C#CCOc1ccc(/C=C2\SC(=O)N(CC(=O)NCc3ccccc3)C2=O)cc1,inverse Kirkwood-Buff integrals,binary solvent mixture,"concentration not given, 298.15 K, mole fraction x1 0.10",,correlation volume,1830 cm³/mol
Nc1ncnc(NCC2CCN(C(=O)C(O)CO)CC2)c1-c1ccc(Oc2ccccc2)cc1 (stereo not drawn),,"healthy male human, plasma","oral, 75 mg evobrutinib",,fraction of total drug exposure,> 10%
CCC(=O)N[C@@H](C)C(=O)OCC(=O)N[C@@H](C)C(=O)O,,water,"pH 7, 65 °C",,depolymerization half-life,4.63 h
CC(C)c1cnc(-c2cc(Cl)ccc2F)cc1Nc1ccncc1C(=O)NC(CO)CO,refers to: anaemia,human patients,"oral, dose not given, grade 5",,patients with related SAE,0%
O=C([O-])CN1CCN(CC(=O)[O-])CCN(CC(=O)NC[C@H]2CC[C@H](C(=O)N[C@H](Cc3cnc4ccccc4c3)C(=O)NCCCC[C@H](NC(=O)N[C@@H](CCC(=O)O)C(=O)O)C(=O)O)CC2)CCN(CC(=O)[O-])CC1.[64Cu+2],PET/CT dosimetry OLINDA/EXM,"healthy volunteers, lungs",up to 24 h post-injection,,absorbed dose,0.011 mGy/MBq
O=c1nc(NO)ccn1[C@@H]1O[C@H](CO)[C@@H](O)[C@H]1O,"Western blot, refers to: CYP2D6","rat, arthritis model, liver","oral, 80 mg/kg twice daily, 5 days",relative to: control group,protein level,0.8 fold
CC[C@H](C)[C@H](NC(=O)[C@H](Cc1ccccc1)NC(=O)[C@H](CCCN)NC(=O)[C@H](CCCNC(=N)N)NC(=O)[C@H](Cc1ccccc1)NC(=O)[C@H](Cc1ccccc1)NC(=O)[C@H](CCCCN)NC(=O)[C@H](CO)NC(=O)[C@H](CC(C)C)NC(=O)[C@H](CCCNC(=N)N)NC(=O)[C@H](CCSC)NC(=O)[C@H](C)N)C(=O)N[C@@H](CC(C)C)C(=O)N[C@@H](CCCN)C(=O)N[C@@H](CCCNC(=N)N)C(=O)N[C@@H](CCCCN)C(=O)N[C@@H](CCCCN)C(=O)O,circular dichroism,20% TFE in PBS,"200 µM, pH 7.4, 25 °C",,helicity,15.7%
COc1ccc(S(=O)(=O)N2CCc3ccccc3C2)cc1N1CCN(C(=O)c2ccc(F)cc2C(F)(F)F)CC1,,"rat, plasma","intravenous, 10 mg/kg, 30 min, single dose",,concentration,963 ng/mL
COc1cc(C)c(Cc2ccc(O)cc2)cc1[C@@H]1S[C@H](CO)[C@@H](O)[C@H](O)[C@H]1O,,"Japanese T2DM patients, plasma","5 mg luseogliflozin, day 7, once daily",,half-life,19.3 ± 3.63 h
Cc1cc(O)cc(O)c1C(=O)c1c2c3c(c(O)cc(C)c3oc1=O)C(=O)c1c(O)cc(O)cc1-2,,Caco-2 monolayer,"100 µM, 3 h, pH 7.4",relative to: AP to BL over BL to AP,efflux ratio,31.3
CC(C)(O)c1ncc([S@](N)(=O)=NC(=O)Nc2c3c(cc4c2CCC4)CCC3)s1,,"healthy human subjects, all study parts","oral, dose not given",,subjects with gastrointestinal disorders,28%
Oc1ccc2ccccc2c1/N=N/c1ccc(/N=N/c2ccccc2)cc1,,extracted rat blood QC samples,"0.5 µg/L, 4 h, room temperature, short-term stability",,measured concentration,0.467 µg/L
Cn1c(=O)oc2ccc(-c3ccc(CC(C#N)NC(=O)C4CNCCCO4)c(F)c3)cc21 (stereo not drawn),refers to: acne,human volunteers,"oral, dose not given",,treatment-emergent adverse event incidence,3.7%
CC(C)[C@H](NC(=O)CNC(=O)[C@H](CCC(N)=O)NC(=O)[C@H](C)N)C(=O)O,LC-MS/MS,"human, plasma","intravenous, 10 mg/kg three times daily, day 3, first dose, 10 min infusion, geometric mean",,AUC(0-last),273 ng·h/mL
CC1(C)C(/C=C/C2=C(Cl)C(=C/C=C3/N(CCCCCC(=O)O)c4ccccc4C3(C)C)/C[N+](C)(C)C2)=[N+](CCCCCC(=O)O)c2ccccc21,,10 mM PBS,"20 µM, pH 7.4, 750 nm LED light",,photostability,stable
CCCC(CCC)NC(=O)c1ccc(OC2OC(C(=O)O)C(O)C(O)C2O)c(O)c1 (stereo not drawn),,"female Sprague-Dawley rat, plasma","oral, 50 mg/kg of parent drug",,Tmax,4.3 h
CC(=O)N[C@@H](CC(N)=O)C(=O)NCC(=O)N[C@@H](CCCNC(=N)N)C(=O)N[C@@H](C)C(N)=O,1H NMR,sodium phosphate buffer 50 mM,"pH 7.4, 28 °C",,half-life of Asn form,87.2 h
COCCOCCOCCOCCC(=O)NCc1cc(CNC(=O)CCOCCOCCOCCOC)cc(-c2cc3cc4nc(c(-c5ccc(CCC(=O)O)cc5)c5[nH]c(cc6nc(c(OC)c2[nH]3)CC6(C)C)cc5-c2cc(CNC(=O)CCOCCOCCOCCOC)cc(CNC(=O)CCOCCOCCOCCOC)c2)CC4(C)C)c1,,DMF,room temperature,,integrated Qy/B absorption ratio,0.48
N=C(N)NCCC[C@@H]1NC(=O)[C@H](Cc2c[nH]c3ccccc23)NC(=O)[C@@H](CC2CCCCC2)NC(=O)[C@@H]2CCCN2C(=O)[C@@H](NC(=O)CCc2ccccc2)CCCNC1=O,,"C57BL/6J mouse, plasma spinal cord","intraperitoneal, 1 mg/kg single dose",,MRT(0-inf),1.34 h
CC(=O)[CH](C(C)=O)[Pt-2]1([S+](C)C)[O]C(C)=CC(C)=[O+]1 (stereo not drawn),,"rat, blood","intravenous, 10 mg/kg, single dose",,AST,86.4 ± 6.5 U/L
CC1(C)C(=CC=C(C=CC2=[N+](CCC[N+](C)(C)C)c3ccc(S(=O)(=O)[O-])cc3C2(C)C)CCC(=O)[O-])N(CCC[N+](C)(C)C)c2ccc(S(=O)(=O)[O-])cc21,,100% serum,pH 7.4,,absorbance maximum,642 nm
CC[C@H](C)[C@H](NC(=O)[C@H](Cc1ccccc1)NC(=O)[C@H](CC(=O)O)NC(=O)[C@@H]1CCCCNC(=O)NC[C@H](NC(=O)[C@H](CC(C)C)NC(=O)[C@H](CCCNC(=N)N)NC(=O)[C@H](CCSC)NC(=O)[C@H](C)N)C(=O)N[C@@H](CCCCN)C(=O)N[C@@H](Cc2ccccc2)C(=O)N[C@@H](Cc2ccccc2)C(=O)N1)C(=O)N[C@@H](CC(C)C)C(=O)N[C@@H](CCC(N)=O)C(=O)N[C@@H](CCCNC(=N)N)C(=O)N[C@@H](CCCCN)C(=O)N[C@@H](CCCCN)C(=O)O,circular dichroism,20% TFE in PBS,"200 µM, pH 7.4, 25 °C",,helicity,32.8%
Cc1ccc(-c2ccc(-c3cc4sccc4o3)cn2)nc1,TCSPC,DMSO,,,radiative decay rate constant,0.5 ns⁻¹
CC(O)c1cc(Cl)ccc1Cn1c(=S)[nH]c(=O)c2[nH]ccc21 (stereo not drawn),,"dog, both sexes, plasma",100 mg/kg,relative to: dog over human 5 mg,exposure ratio,not detected
O=C(CCc1ccc(CNC(C(=O)O)C2CCCCC2)cn1)NO (stereo not drawn),,"human, plasma","oral, 20 mg once daily, median",relative to: day 7 over day 1,accumulation ratio Cmax,0.835
Cn1c2ccc([N+](=O)[O-])cc2c(=O)n1Cc1ccccc1,resazurin,"peritoneal macrophages, BALB/c mice","48 h, 10% FBS",,CC50,4 ± 0.9 µM
CC(C)(Sc1ccncc1-c1ccc(C#N)c2ccccc12)C(=O)OC1OC(C(=O)O)C(O)C(O)C1O (stereo not drawn),,"adult men, plasma","oral, 15 mg verinurad, severe renal impairment",relative to: normal renal function,AUC(0-inf) increase,316%
